# Results gathered from unrelated publications.
# Each line is one published result; not all experiments were run side by side. Several values in a cell are separate wells, animals, samples, runs or records. Numbers after ± are the reported error.
Structure (SMILES),organism,test,system,setting,scale,measurement,result
O=C(NCCN1CCCC1)c1cc(-c2ccc(CN3CCOCC3)cc2)nc2ccc(F)cc12,Plasmodium berghei,"parasite growth, luciferase bioluminescence",HepG2 spheroids infected,24 h,,EC80,3.78 nM
COCC(=O)N1CCC[C@H](C(=O)NCc2nc(-c3ccccc3F)cs2)C1,Plasmodium falciparum,SYBR Green growth,"asexual blood-stage parasites, 3D7",72 h,,EC50,200 ± 25 nM
CC/N=C(\c1ccc(OC)c(OC)c1)N1CCCc2cc(C3=NNC(=O)SC3C)ccc21 (centres unmarked),Plasmodium falciparum,nanoluciferase readout,3D7 Hyp1-Nluc,"20 µM, 72 h",relative to: DMSO,parasite growth,6.48%
CCc1nnc(Nc2ccnc3ccc(-c4ccc(S(=O)(=O)N5CCOCC5)cc4)cc23)s1,Plasmodium falciparum,"parasite growth, SYBR Green",TM91C235,,,EC50,1200 nM
N#CC(=C1C=CC(=NOC(=O)OCc2ccccc2)C=C1)c1ccccc1,Clavispora lusitaniae,broth dilution,ATCC 34449,"48 h, 37 °C",,MFC,128 µg/mL
COc1ccc(OCCCO)cc1-c1cn2cc(-c3nnc(NCCCCc4ccccc4)o3)ccc2n1,Plasmodium falciparum,nanoluciferase readout,3D7 Hyp1-Nluc,"20 µM, 72 h",relative to: DMSO,parasite growth,0.705%
N#Cc1ccc(-c2csc(CNC(=O)[C@H]3CCCN(C(=O)N4CCCC4)C3)n2)cc1,Plasmodium falciparum,SYBR Green growth,"asexual blood-stage parasites, 3D7",72 h,,EC50,260 ± 38 nM
COC(=O)[C@@H](NCc1cc2ccccc2nc1OCc1ccccc1)C(C)C,Pseudomonas aeruginosa,,,"64 µg/mL, without pentamidine",relative to: control,growth,93.1%
CC(C)n1ncc2c(C(=O)NCC3(C)CNC3)cc(C3CC3)nc21,coxsackievirus A16,,RD,5 µM,,cell protection,102% and 99.4%
N=C(N)c1ccc(OCc2cccc(COc3ccc(C(=N)N)cc3)c2)cc1,Escherichia coli,checkerboard,mcr-1 polymyxin-resistant,"concentration not given, 20 h, together with: rifampicin",,MIC of compound in combination,25 µg/mL
COc1cc2c(cc1OC)[C@@H]1C(=O)c3ccc4c(c3O[C@@H]1CO2)C=CC(C)(C)O4,human adenovirus C5,,A549,"concentration not given, 72 h",relative to: DMSO control,minimum progeny production,35%
CNS(=O)(=O)c1ccccc1Nc1nc(Nc2cc(OC)c(OC)cc2C)ncc1Br,Plasmodium falciparum,invasion and early ring development,Hyp1-Nluc,"10 x growth EC50, 4 h",,inhibition,78.9%
CCOCC(=O)N1CCC[C@H](C(=O)NCc2nc(-c3ccccc3)cs2)C1,Plasmodium falciparum,SYBR Green growth,"asexual blood-stage parasites, 3D7",72 h,,EC50,37 ± 3.2 nM
CN[C@H](CC(C)C)C(=O)N[C@H]1C(=O)N[C@@H](CC(N)=O)C(=O)N[C@H]2C(=O)N[C@H]3C(=O)N[C@H](C(=O)N[C@H](C(=O)O)c4cc(O)cc(O)c4-c4cc3ccc4O)[C@H](O)c3ccc(c(Cl)c3)Oc3cc2cc(c3O[C@@H]2O[C@H](CO)[C@@H](O)[C@H](O)[C@H]2O[C@H]2C[C@](C)(N)[C@H](O)[C@H](C)O2)Oc2ccc(cc2Cl)[C@H]1O,Streptococcus pneumoniae,,PRSP,10 isolates,,MIC50,0.25 µg/mL
COc1ccc(C[C@H](NC(=O)[C@H](C)NC(=O)CN2CCOCC2)C(=O)N[C@@H](Cc2ccccc2)C(=O)C2(C)CO2)cc1 (stereo in doubt),Plasmodium berghei,"parasitaemia, 4-day suppression test","ANKA, infected BALB/c mice",intraperitoneal,,ED50,6.52 mg/kg
Cc1cnnc(Nc2ccnc3ccc(-c4ccc(S(=O)(=O)N5CCOCC5)cc4)cc23)c1,Plasmodium falciparum,"parasite growth, SYBR Green",TM91C235,,,EC50,1600 nM
NCCCOCC(=O)N1CCC[C@H](C(=O)NCc2nc(-c3ccc(C4CC4)cc3)cs2)C1,Plasmodium falciparum,SYBR Green growth,"asexual blood-stage parasites, 3D7",72 h,,EC50,14 ± 4.8 nM
CN(C)c1ccc(C(=C2C=CC(=[N+](C)C)C=C2)c2ccc(N(C)C)cc2)cc1,Drosophila melanogaster,fluorescence,,"liquid food, 40 µg/mL, first instar larvae",relative to: solvent,fluorescein ingestion,-65%
CC(=O)NC[C@H]1CN(c2ccc(N3CCOCC3)c(F)c2)C(=O)O1,Staphylococcus aureus,,"MRSA, 10 isolates",serum 0%,,MIC50,1 µg/mL
COc1cc(C(=O)N(C)C)ccc1-c1cc2nccc(-c3ccc4ccncc4c3)c2o1,Plasmodium falciparum,nanoluciferase readout,3D7 Hyp1-Nluc,"2 µM, 72 h",relative to: DMSO,parasite growth,27.7%
CC(C)=CCC/C(C)=C/CNCCNC1C2CC3CC(C2)CC1C3 (centres unmarked),Mycolicibacterium smegmatis,cell growth,,,,IC50,no effect
O=c1c(-c2cc(O)c(O)c(O)c2)coc2cc(O)c(O)c(O)c12,Drosophila melanogaster,fluorescence,,"liquid food, 40 µg/mL, first instar larvae",relative to: solvent,fluorescein ingestion,-20.3%
CN1CCC[C@H](OCC(=O)N2CCC[C@H](C(=O)NCc3nc(-c4ccc(C(F)(F)F)cc4)cs3)C2)C1,Plasmodium falciparum,SYBR Green growth,"asexual blood-stage parasites, 3D7",72 h,,EC50,25 ± 3.6 nM
O=C1C(Cl)=C(n2ccnc2)C(=O)c2ccccc21,Serratia marcescens,,MTCC 4301,10 µg/mL,,zone of inhibition,9 mm
CN1CCN(CCCN2c3ccccc3Sc3ccc(C(F)(F)F)cc32)CC1,Drosophila melanogaster,fluorescence,,"liquid food, 40 µg/mL, first instar larvae",relative to: solvent,fluorescein ingestion,-15.8%
CCOc1ccc(-c2csc(CNC(=O)[C@H]3CCCN(C(=O)COC)C3)n2)cc1,Plasmodium falciparum,SYBR Green growth,"asexual blood-stage parasites, 3D7",72 h,,EC50,15 ± 1 nM
Cn1cc(-c2cnc3[nH]cc(-c4cn(Cc5cccc(F)c5F)nn4)c3c2)cn1,Plasmodium falciparum,nanoluciferase readout,3D7 Hyp1-Nluc,"20 µM, 72 h",relative to: DMSO,parasite growth,0.403%
NC(=O)N1c2ccccc2C=Cc2ccccc21,Drosophila melanogaster,fluorescence,,"liquid food, 40 µg/mL, first instar larvae",relative to: solvent,fluorescein ingestion,14.9%
O=S(=O)(c1ccc(-c2ccc3nccc(Nc4ccccn4)c3c2)cc1)N1CCOCC1,Plasmodium falciparum,"parasite growth, SYBR Green",D6,,,EC50,540 nM
CCOCC(=O)N1CCC[C@H](C(=O)NCc2nc(-c3ccc(-n4cccn4)cc3)cs2)C1,Plasmodium falciparum,SYBR Green growth,"asexual blood-stage parasites, 3D7",72 h,,EC50,8 ± 1.7 nM
Cc1cc(OC(C)C)ccc1C(=O)C(C)(C)NC(=O)c1sccc1C,Sclerotinia minor,mycelial growth,PSA medium,20 °C,,EC50,0.03 µg/mL
Cc1ccc(-c2csc(CNC(=O)[C@H]3CCCN(C(=O)COCC(F)F)C3)n2)cn1,Plasmodium falciparum,"parasite growth, SYBR Green","3D7, asexual blood stage",72 h,,EC50,3.5 ± 1.1 nM
O=C1c2ccccc2C(=O)c2c(O)c(O)cc(O)c21,Drosophila melanogaster,fluorescence,,"liquid food, 40 µg/mL, first instar larvae",relative to: solvent,fluorescein ingestion,-41.4%
O=C(Nc1ccc(CNc2ncnc3ccccc23)cc1)c1ccc(Cl)c(F)c1,Plasmodium falciparum,LDH readout,3D7 Hyp1-Nluc,"2 µM, 72 h",relative to: DMSO,parasite growth,16.4%
C[C@@H]1[C@H](O)[C@@H](C)/C=C/C=C/C=C/C=C/C=C/C=C/C=C/[C@H](O[C@@H]2O[C@H](C)[C@@H](O)[C@H](N)[C@@H]2O)C[C@@H]2O[C@](O)(C[C@@H](O)C[C@@H](O)[C@H](O)CC[C@@H](O)C[C@@H](O)CC(=O)O[C@H]1C)C[C@H](O)[C@H]2C(=O)O,Leishmania major,eosin vital stain,promastigote,"500 µg/mL, 24 h",,antileishmanial activity,76.5% and 74.9%
Cc1cc2c(C(C)C)c(O)c(O)c(C=O)c2c(O)c1-c1c(C)cc2c(C(C)C)c(O)c(O)c(C=O)c2c1O,Drosophila melanogaster,fluorescence,,"liquid food, 40 µg/mL, first instar larvae",relative to: solvent,fluorescein ingestion,-65.7%
Nc1nc(-c2ccccc2)nc2[nH]nc(Nc3ccc(C(F)(F)F)cc3)c12,coxsackievirus B3,,"31-1-93, NMRI mice, CVB3 chronic myocarditis","oral, 100 mg/kg twice daily, day 17, dosed days 0 to 6, score scale 0 to 7",direction not given,clinical score,0
CNC(=O)c1cc(Oc2ccc(NC(=O)Nc3ccc(F)c(C(F)(F)F)c3)c(F)c2)ccn1,Drosophila melanogaster,rescue from lethality,ptc>dRet M955T,"concentration not given, 25 °C, compound in food",,toxicity,not toxic

# For quick reference, copied from above:
Structure (SMILES),organism,test,system,setting,scale,measurement,result
O=S(=O)(c1ccc(-c2ccc3nccc(Nc4ccccn4)c3c2)cc1)N1CCOCC1,Plasmodium falciparum,"parasite growth, SYBR Green",D6,,,EC50,540 nM
CCOCC(=O)N1CCC[C@H](C(=O)NCc2nc(-c3ccc(-n4cccn4)cc3)cs2)C1,Plasmodium falciparum,SYBR Green growth,"asexual blood-stage parasites, 3D7",72 h,,EC50,8 ± 1.7 nM
Cc1cc(OC(C)C)ccc1C(=O)C(C)(C)NC(=O)c1sccc1C,Sclerotinia minor,mycelial growth,PSA medium,20 °C,,EC50,0.03 µg/mL
Cc1ccc(-c2csc(CNC(=O)[C@H]3CCCN(C(=O)COCC(F)F)C3)n2)cn1,Plasmodium falciparum,"parasite growth, SYBR Green","3D7, asexual blood stage",72 h,,EC50,3.5 ± 1.1 nM
